Measured values gathered from unrelated publications.
Each numbered part is a random draw from the data of one study; scales do not carry over between parts.

Sample 1
Target: Sal-like protein 4, full length isoform B (SALL4, Homo sapiens, UniProt Q9UJQ4-2, residues 1-616)
Technique: universal PBM
Molecule type: double-stranded DNA, one strand shown
Matrix: in vitro
Tested at: not given
Setting: 8-mer, flanks averaged, mean of replicates
Reading: higher = stronger binding
Construct (chain): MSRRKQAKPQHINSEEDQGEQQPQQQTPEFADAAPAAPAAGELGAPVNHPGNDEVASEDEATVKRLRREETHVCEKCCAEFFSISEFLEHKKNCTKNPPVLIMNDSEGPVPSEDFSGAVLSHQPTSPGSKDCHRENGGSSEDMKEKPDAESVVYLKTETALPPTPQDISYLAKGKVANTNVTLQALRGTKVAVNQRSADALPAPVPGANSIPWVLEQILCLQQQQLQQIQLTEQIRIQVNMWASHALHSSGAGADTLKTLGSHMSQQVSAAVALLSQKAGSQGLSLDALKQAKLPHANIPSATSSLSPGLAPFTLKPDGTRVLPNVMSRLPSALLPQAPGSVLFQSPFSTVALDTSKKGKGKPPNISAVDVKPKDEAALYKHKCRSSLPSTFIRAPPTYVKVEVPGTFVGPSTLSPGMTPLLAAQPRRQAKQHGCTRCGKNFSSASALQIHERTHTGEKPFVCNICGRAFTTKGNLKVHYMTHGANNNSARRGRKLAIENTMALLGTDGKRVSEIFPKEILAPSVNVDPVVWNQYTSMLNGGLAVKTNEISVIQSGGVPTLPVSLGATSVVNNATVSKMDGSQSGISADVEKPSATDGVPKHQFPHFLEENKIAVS
Oligonucleotide | E-score
ACAGCAAA | 0.183
ATCCGGGG | -0.182
CGCACGTC | -0.134
CCGAGTCC | -0.141
GAGATGTA | 0.165
GACTCTTA | 0.194
CTGATCAC | -0.0119
CGATTCCA | -0.0428
GAAACACC | -0.038
GCAGCCTA | -0.025
AACAAGGT | 0.0777
CTCTTGGA | -0.135
ATGGGCCC | -0.348
CCAGTACC | -0.199
CGGGGTGC | -0.316
ATGCTGAC | 0.0459
ACTCTACG | -0.096
AGACCTTC | -0.0933
CCCTTAAA | 0.175
ACTGTGAA | 0.022
GAACTGTC | -0.189
TACAGGTA | 0.141
AACCGGAA | -0.135
GCGGACCC | -0.325
CCTCGTAC | 0.0257

Sample 2
Target: Interferon regulatory factor 5, full length, phosphomimetic (IRF5, Homo sapiens, UniProt Q13568-2, residues 1-514, S451D/S453D/S456D/S462D)
Technique: protein-binding microarray
Molecule type: double-stranded DNA, one strand shown
Matrix: in vitro
Tested at: 940 nM top
Setting: 60-bp whole probe
With: salmon DNA 0.4 mg/ml
Relative to: random background probes
Reading: higher = stronger binding
All sequences stand within: GCCTAGCAC … GTCTTGATTCGCTTGACGCTGCTG
Oligonucleotide | fitted relative affinity [z-score]
TTGCCTTTTGCTTTACTGATGTGCTAG | 1.08
GACGAGATCAGTTTCGAGACGTGCTAG | 4.78
TTAGGTATCGGTTTTCGGTTAGTGCTA | 8.53
TTAGATTTCCGGTTTCGATTAGTGCTA | 6.68
ATAGGACTGCTACTGCTTTAGTGCTAG | -0.149
TCAACACTAATTTTCAAACTGTGCTAG | 0.809
TCATATTTGTTTCCATTACTGTGCTAG | 1.74
GAGGGTCTCCTTCTCCTGACGTGCTAG | 0.241
AGGACCATCCCTTATAAATAGGTGCTA | 0.529
TCACCCTTTGCTTTCCTACTGTGCTAG | 1.34
AATATTATAACACTCTTCTTGTGCTAG | 0.772
TTAGGTTTCCTTTTCCTTTAGTGCTAG | 2.25
CACGGTTTCGGGTTTCGGGACGTGCTA | 7.67
CTTGAACCTGGGAGGTGGAGGTGCTAG | -0.626
TTACATTTCGGGACTGGATTAGTGCTA | 0.418
ATAGGACTGGGTTTCGGTTAGTGCTAG | 6.68
TTAGATCTCAGTTTAGATTAGTGCTAG | 0.646
GACGGTTTCGGGTATGGGGACGTGCTA | 8.87
TTACGACTGGGTATCGGTTAGTGCTAG | 4.04
TGAGATTTCAGTTTCGATTAGTGCTAG | 9.04
TTGGATTTCAGTCTCGATTAGTGCTAG | 4.24
GACGTACTGCTACTGCTGACGTGCTAG | -0.456
TTACGTATCGGTATCGGTTAGTGCTAG | 9.06
TTAGGACTGCTTTTCATTTAGTGCTAG | 0.00564
TCAAATTTCTTCCTCCCACTGTGCTAG | 1.09

Sample 3
Target: RNA binding protein fox-1 homolog 2, RRM domain, GST-SBP tag (RBFOX2, Homo sapiens, UniProt O43251-10, residues 100-194)
Technique: RNA Bind-n-Seq
Molecule type: RNA
Matrix: in vitro
Tested at: 365 nM
Setting: natural RNA segment, single round, ends assumed
Relative to: no-protein control
Reading: higher = stronger binding
All sequences stand within: GGGAGUUCUACAGUCCGACGAUC … UGGAAUUCUCGGGUGCCAA
Construct (chain): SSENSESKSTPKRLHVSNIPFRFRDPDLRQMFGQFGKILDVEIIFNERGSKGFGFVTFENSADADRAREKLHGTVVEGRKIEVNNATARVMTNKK
Oligonucleotide | RBNS enrichment (R)
UAUUCUGGGAAUGUAUAGUAUUUGAAAACAGAAAUUGGUACCUUGCACACAUCAUCUGUAAGCUGUUUGGUUUUAAAAUACUGUAGAUAAUUAACCAAGGUAGAAUGACC | 0.389
ACUGCCAUCUUUCUUUUGUGACUUUCUUCCUUAAGCAACAGUAAACUUGCAGCAGAUCUGGUUUUUUUUUUUUUUCCUUGCCAAGACAUCGCCAGCCCUGUAGAAGGCUC | 0.815
AGAUGUUAAGUGUAACAGAUAAUUGGAGCUACGAGCCAUUCAGCUUCAGCCUUUCCAGACCACACACGAGACAUUAACCAUCCCAUGGAGAAGUUUACAUGGUGACUGUU | 0.24
CGGAUGUACACCGUAGAAGUGCCAUUCAGUUGUACACACAUCUUUCCUCCUCCACAUCAUCCCCACGACCCUUCUAACUCCUGGCCUCUUCCAGCCAAAACGGGAAAAGU | 0.802
UAAUCAAAGUGCCCUCCCAAAUCAGUUCUCCUUUUCGUAUGAACAGCAUCUCUACUUUUAAAGAGGAGUUGAGGAUCGAGAAGAUGACAGUGCAGCAGUGGGUGUGGCCU | 0.529
UGAGAGGAACUAUACUACCAAAAGAGCCCAAAUGACCAAAUCCAUGGAUAAUUGCUUCACAGCCUUGGCCAUCCUGGCUCAGCUCUCAAUUUAGUAUAAUAUGCAGUUCC | 0.44
UCUAGUUGACUUUUCUCUUAGCCUGAAUGUGGACGUUGAAACAUAUCACUUCAGGGCUUGGAAAAGUCAGUCAACUUGACGUACAUUUUUAGUGACAUUUUAAAAGCAGU | 0.426
AAGAGUGUGCUUGUCAUCUGCCACUUUCGGGAGGGUGGAUCCACUGUGCAGGAGUGGCCGGGGAAGCUGGCAGCACUCAGUGAGGCCGCCCGGCACACAAGGCACGUUUG | 0.6
CCCGUGUGCUGUUAAUAGUGUGAAAUUGUCAUGUUAAAAAAAAAAACAGGAACCAAAUGUGACCUUGUGCAUAUAUUGGUAGCUGAAAAUCUUCAAGGCUACUGAUGGGU | 0.557
UUUUCUUACAUACCCAUCUUUUAACUUAGAGAUAGCAUUUUUUGCCCUCUUUAUUUUGUUGUUUGUUUCUCCAGAGAGUAAACGCUUUGUAGUUCUUUCUUUAAAAAACA | 0.397
GAUGGACUUGAAUGCAUUUUUGUCUCUUCUUGAUGAAGCGGCUUUGCCGCAGCAAAUGAGGCUUCUCUCUGAGGAGCUGAGAGGUCUUGCAGCCUCUCCUUGUCAUUCUC | 0.283
AUCAAUGUUGUUCGGUCAGCCCUUCCCUAAUUACACCUAUCCCCUACACAUACAUGCACAUAGACACACACAUGAACACACUGAAGAUAUUUCCUUCAGGUGUGUGUAAA | 0.544

Sample 4
Target: RING finger protein unkempt homolog, zinc fingers 1-6, GST-SBP tag (UNK, Homo sapiens, UniProt Q9C0B0, residues 30-357)
Sequence of UniProt Q9C0B0 (30-357, looked up): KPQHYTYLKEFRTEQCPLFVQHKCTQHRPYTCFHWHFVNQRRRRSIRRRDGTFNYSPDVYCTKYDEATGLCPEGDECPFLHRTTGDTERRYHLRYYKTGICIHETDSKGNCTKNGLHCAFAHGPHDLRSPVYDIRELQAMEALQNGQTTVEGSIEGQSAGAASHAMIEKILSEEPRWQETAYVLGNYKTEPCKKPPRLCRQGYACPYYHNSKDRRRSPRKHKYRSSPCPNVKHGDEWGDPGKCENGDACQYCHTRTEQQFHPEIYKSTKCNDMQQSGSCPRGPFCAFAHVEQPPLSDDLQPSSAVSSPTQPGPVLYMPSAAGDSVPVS
Technique: RNA Bind-n-Seq
Molecule type: RNA
Matrix: in vitro
Tested at: not given
Setting: RNA with constant flanks, human-mouse chimeric sites, ends assumed
Relative to: input RNA pool
Reading: higher = stronger binding
All sequences stand within: GGGAGUUCUACAGUCCGACGAUC … CAACAGAGGAUUGAGCAUCA
Oligonucleotide | bound/input enrichment [ratio]
UCUUUAAAAAAAAAAUUACCUUUUCUGACAGUGCUUUCCCUCCCAUAGGUCCAGGUUCAAGCUCAAAGGCCAAAACUUUUGCACGGAGCUCAAACAUCUGAUGAAGAAAGAUUUCUGAGA | 0.883
UUCAAAGAAAAGGGCAGCUGUGUCAUUUCAUAAGUAACUCUGGGGGAGGGAAAUUCUGUUCUUUUGUUUUUAGUUUUCCCAAAUGAAGCCAAAGUGUGUGUUGAAGAACUGAGAAAAAAU | 0.192
UCGGAUGCUGUGCUGGGUCACUUUCCGUAUCCAGAUCCUUCACAGUGGACAGAUGAAGAACUGGGAAUCCCUCCUGAUGAUGAAGACUGACACUGUAAACUCUCUGGACGAGUAGGAGCA | 0.399
CUUAAUGUUAAUAUUUUUGAAUAAAUGAAGCUAAAAUGUCUGCUUUUGGUACUACAUGCAUUAAUAAAAGGUUAAGUUUUGUUUUCCACUGAAGUACGUAAUACUUACUCAGAAAAAAAC | 0.346
AGAUUCCCCCUCCUGAGACCUCCUCCGAAAUUGGCAUCUCUUACAGAUGGUUCAUCUCCUGUUAGCGUUUUAGUUUGGACCACCCAGCCUUGGACAAUUCCCGCCAACCAGGCAAUUUGC | 1.06
CUGUGACCACAAGAUCCUACCUGAGUGGCAGCUGAAGUUGACUCCCUCUCCUUGCCUGCCUAGUUUCCCACUGCCCCUUGAGUCCACAGUGUCGGCUGAGAUGUUGCCUCUGCACGGUUC | 0.301
GGCUGCUGGUGACUGUCCUGGAGUGGCUGGAGUUCCCGCCGGAGCGCGGCCAGACUAAUUAUAGAAAAUGCCAAGUAGGAAGUUUGUUGAGGGUGAAGUGGUCAGAGGCCGAUGGCCUGG | 4.32
AUAAAGGCCAUGUUGAGUGGCCCAGGUCAGUUUGCUGAGAAUGAAACCAACGAGGUCAAUUUUAGAGAGAUCCCCUCACAUGUGCUAUCAAAAGUGUGCAUGUAUUUUACCUACAAGGUC | 0.165
AUUGUUGAAGCGAAUCCACUUUUAGAAGCAUUUGGAAAUGCAAAGACUGUUCGCAACAAUAAUAGCAGUCGAUUUGGGAAAUUUGUAGAAAUACAUUUCAAUGAAAAGAGUUCGGUUGUU | 0.186
GAUCAUGAACCACCAUCAGAAAUGAAGAUGAGAUUACCCAGACGAGCCAAAACAGCUGCGCUACAGAAAAGUAAACUUUAACCUUGCGAGUUCCUUAAAUGAAGAUCAAGUUAAGAGAGC | 0.31
GCGAACAGGACUACAGAAAUGCUGGUAAUUUCAGUCACUUGCUGAUGACUUCUGAUGUCCCAGCAAAUGUUGGCAUUGUUGACUGCUGAGAAGAUACUUCUGAGGACAUACAGCAGUGGU | 0.132

A few entries again (sample 1):
Oligonucleotide | E-score
AGACCTTC | -0.0933
CCCTTAAA | 0.175
ACTGTGAA | 0.022
GAACTGTC | -0.189
TACAGGTA | 0.141
AACCGGAA | -0.135
